Published values of several laboratories.
Compare with care: the assays were run in different laboratories. Values after ≈ are worked out from the molar mass of the structure shown.
Organism: Pseudomonas aeruginosa

For CC[C@H](C)[C@H](NC(=O)[C@H](Cc1c[nH]cn1)NC(=O)[C@H](CCCCNC(=O)[C@@H](NC(=O)[C@H](CCCCN)NC(=O)CSC[C@H](NC(=O)[C@H](Cc1ccccc1)NC(=O)[C@H](CCCCNC(=O)[C@H](CC(C)C)NC(=O)[C@@H]1CCCN1C(=O)[C@H](CCCCN)NC(=O)CCS[C@@H]1O[C@H](CO)[C@H](O)[C@H](O)[C@H]1O)NC(=O)[C@H](CC(C)C)NC(=O)[C@@H]1CCCN1C(=O)[C@H](CCCCN)NC(=O)CCS[C@@H]1O[C@H](CO)[C@H](O)[C@H](O)[C@H]1O)C(N)=O)[C@@H](C)CC)NC(=O)[C@@H](NC(=O)[C@H](CCCCN)NC(=O)CSC[C@H](NC(=O)[C@H](Cc1ccccc1)NC(=O)[C@H](CCCCNC(=O)[C@H](CC(C)C)NC(=O)[C@@H]1CCCN1C(=O)[C@H](CCCCN)NC(=O)CCS[C@@H]1O[C@H](CO)[C@H](O)[C@H](O)[C@H]1O)NC(=O)[C@H](CC(C)C)NC(=O)[C@@H]1CCCN1C(=O)[C@H](CCCCN)NC(=O)CCS[C@@H]1O[C@H](CO)[C@H](O)[C@H](O)[C@H]1O)C(N)=O)[C@@H](C)CC)C(N)=O, the MBC was over 45 µM (PAO1; biofilm-forming conditions).
Nc1ccccc1C(=O)NS(=O)(=O)NC[C@H]1O[C@@H](n2cnc3c(N)ncnc32)[C@H](O)[C@@H]1O — result for “lowest effective concentration”: 100 µM (HHQ and PQS production, inhibitor, LC-MS/MS; PA14; up to 24 h).
CC[C@H](C)[C@H](NC(=O)[C@H](CCCCN)NC(=O)[C@H](CCCCN)NC(=O)[C@H](CC(C)C)NC(=O)[C@H](CCCCN)NC(=O)[C@H](CCC(=O)O)NC(=O)[C@H](CCCCN)NC(=O)[C@@H](NC(=O)[C@H](CCCCN)NC(=O)[C@H](CC(N)=O)NC(=O)[C@H](CCCNC(=N)N)NC(=O)[C@H](Cc1ccccc1)NC(=O)[C@H](CCCCN)NC(=O)[C@H](CCCNC(=N)N)NC(=O)[C@H](CC(C)C)NC(=O)[C@H](CCCNC(=N)N)NC(=O)[C@H](CCCCN)NC(=O)[C@H](CCCNC(=N)N)NC(=O)[C@H](CC(C)C)NC(=O)CN)[C@@H](C)CC)C(=O)NCC(=O)N[C@@H](CCC(N)=O)C(=O)N[C@@H](CCCCN)C(=O)N[C@H](C(=O)N[C@@H](CCC(N)=O)C(=O)NCC(=O)N[C@@H](Cc1ccccc1)C(=O)N[C@H](C(=O)N1CCC[C@H]1C(=O)N[C@@H](CCCCN)C(=O)N[C@@H](CC(C)C)C(=O)N[C@@H](C)C(=O)N1CCC[C@H]1C(=O)N[C@@H](CCCNC(=N)N)C(=O)N[C@H](C(=O)N[C@@H](CC(=O)O)C(=O)N[C@@H](Cc1ccc(O)cc1)C(=O)O)[C@@H](C)O)C(C)C)[C@@H](C)CC gave a lethal concentration of 3.03 µM (inhibition zone; FRD1; LB agar, overnight).
CC(C)C[C@@H]1NC(=O)CSC[C@@H](C(=O)N[C@@H](CCCCN)C(N)=O)NC(=O)[C@H](CC(C)C)NC(=O)[C@H](CC(C)C)NC(=O)[C@H](CC(C)C)NC(=O)[C@@H]2CSCC(=O)N[C@@H](CC(C)C)C(=O)N[C@@H](CC(C)C)C(=O)N[C@@H](CCCCN)C(=O)N[C@@H](CCCCNC(=O)[C@H](CCCCN)NC(=O)[C@H](CC(C)C)NC1=O)C(=O)N[C@@H](CCCCN)C(=O)N[C@@H](CCCCN)C(=O)N[C@@H](CC(C)C)C(=O)N2 — result for “minimal biofilm inhibitory concentration”: over 32 µg/mL (PAO1; 24 to 25 h).
The FIC index of CCCC(=O)NCC(=O)N[C@@H](CC(C)C)C(=O)N[C@@H](CC(C)C)C(=O)N[C@@H](CCCCN)C(=O)N[C@@H](CCCNC(=N)N)C(=O)N[C@H](C(=O)N[C@@H](CCCCN)C(=O)N[C@H](C(=O)N[C@@H](CC(C)C)C(=O)N[C@@H](CC(C)C)C(=O)NCCCC[C@H](NC(=O)[C@H](CC(C)C)NC(=O)[C@H](CC(C)C)NC(=O)[C@@H](NC(=O)[C@H](CCCCN)NC(=O)[C@@H](NC(=O)[C@H](CCCNC(=N)N)NC(=O)[C@H](CCCCN)NC(=O)[C@H](CC(C)C)NC(=O)[C@H](CC(C)C)NC(=O)CNC(=O)CCC)[C@@H](C)CC)[C@@H](C)O)C(N)=O)[C@@H](C)O)[C@@H](C)CC is reported as 0.5 (checkerboard; ATCC 27853; together with: rifampicin).
The MIC range of CC[C@H](C)[C@H](NC(=O)[C@H](C)NC(=O)[C@@H](NC(=O)[C@H](CC(=O)O)NC(=O)[C@H](CCCCN)NC(=O)[C@H](CO)NC(=O)[C@@H](NC(=O)[C@H](CC(N)=O)NC(=O)[C@H](C)NC(=O)[C@@H](NC(=O)[C@H](CCC(=O)O)NC(=O)[C@H](CCCCN)NC(=O)[C@@H](NC(=O)[C@@H](NC(=O)[C@H](Cc1c[nH]cn1)NC(=O)[C@H](CCCCN)NC(=O)[C@@H](NC(=O)[C@H](CCCCN)NC(=O)[C@H](CCCCN)NC(=O)[C@@H](NC(=O)[C@H](CC(C)C)NC(=O)[C@H](CCCCN)NC(=O)[C@H](CC(N)=O)NC(=O)[C@H](Cc1ccccc1)NC(=O)[C@H](CCCNC(=N)N)NC(=O)[C@H](CCCCN)NC(=O)[C@H](CCCNC(=N)N)NC(=O)[C@H](Cc1ccccc1)NC(=O)CN)C(C)C)C(C)C)[C@@H](C)O)[C@@H](C)CC)[C@@H](C)O)C(C)C)C(C)C)C(=O)N[C@H](C(=O)N[C@@H](C)C(=O)NCC(=O)N[C@@H](CO)C(=O)NCC(=O)N[C@H](C(=O)N[C@@H](C)C(=O)N[C@H](C(=O)NCC(=O)N[C@@H](C)C(=O)N[C@@H](C)C(=O)N[C@@H](CCSC)C(N)=O)C(C)C)C(C)C)C(C)C is reported as 4 to 64 µg/mL (≈ 0.925 to 14.8 µM) (broth microdilution; clinical isolates).
CC[C@H](C)[C@H](NC(=O)[C@H](CCCCN)NC(=O)[C@H](CCCCN)NC(=O)[C@H](CC(C)C)NC(=O)[C@H](CCCCN)NC(=O)[C@H](CCC(=O)O)NC(=O)[C@H](CCCCN)NC(=O)[C@@H](NC(=O)[C@H](CCCCN)NC(=O)[C@H](CC(N)=O)NC(=O)[C@H](CCCNC(=N)N)NC(=O)[C@H](Cc1ccccc1)NC(=O)[C@H](CCCCN)NC(=O)[C@H](CCCNC(=N)N)NC(=O)[C@H](CC(C)C)NC(=O)[C@H](CCCNC(=N)N)NC(=O)[C@H](CCCCN)NC(=O)[C@H](CCCNC(=N)N)NC(=O)[C@H](CC(C)C)NC(=O)[C@@H](N)CC(C)C)[C@@H](C)CC)C(=O)NCC(=O)N[C@@H](CCC(N)=O)C(=O)N[C@@H](CCCCN)C(=O)N[C@H](C(=O)N[C@@H](CCC(N)=O)C(=O)NCC(=O)N[C@@H](Cc1ccccc1)C(=O)N[C@H](C(=O)N1CCC[C@H]1C(=O)N[C@@H](CCCCN)C(=O)N[C@@H](CC(C)C)C(=O)N[C@H](C(=O)N1CCC[C@H]1C(=O)N[C@@H](CCCNC(=N)N)C(=O)N[C@H](C(=O)N[C@@H](CCC(=O)O)C(=O)N[C@@H](CO)C(=O)O)[C@@H](C)O)C(C)C)C(C)C)[C@@H](C)CC has a lethal concentration of 2.89 µM (inhibition zone method; 11082603, LB 0.8% agar with 154 mM NaCl; overnight, 37 °C).
For ONCC1CCCCC1, “reduction of dNTP level” read 7.45% (measured: purine dNTPs; 5000 µM, 3 h, exponential phase; baseline: negative control).
With CCCC(=O)NCC(=O)N[C@@H](CC(C)C)C(=O)N[C@@H](CC(C)C)C(=O)N[C@@H](CCCCN)C(=O)N[C@@H](CCCNC(=N)N)C(=O)N[C@H](C(=O)N[C@@H](CCCCN)C(=O)N[C@H](C(=O)N[C@@H](CC(C)C)C(=O)N[C@@H](CC(C)C)C(=O)NCCCC[C@H](NC(=O)[C@H](CCCCNC(=O)[C@H](CC(C)C)NC(=O)[C@H](CC(C)C)NC(=O)[C@@H](NC(=O)[C@H](CCCCN)NC(=O)[C@@H](NC(=O)[C@H](CCCNC(=N)N)NC(=O)[C@H](CCCCN)NC(=O)[C@H](CC(C)C)NC(=O)[C@H](CC(C)C)NC(=O)CNC(=O)CCC)[C@@H](C)CC)[C@@H](C)O)NC(=O)[C@H](CC(C)C)NC(=O)[C@H](CC(C)C)NC(=O)[C@@H](NC(=O)[C@H](CCCCN)NC(=O)[C@@H](NC(=O)[C@H](CCCNC(=N)N)NC(=O)[C@H](CCCCN)NC(=O)[C@H](CC(C)C)NC(=O)[C@H](CC(C)C)NC(=O)CNC(=O)CCC)[C@@H](C)CC)[C@@H](C)O)C(N)=O)[C@@H](C)O)[C@@H](C)CC the FIC index was 0.375 (checkerboard; ATCC 27853; together with: polymyxin B).
The lethal concentration of CC[C@H](C)[C@H](NC(=O)[C@H](CCCCN)NC(=O)[C@H](CCCCN)NC(=O)[C@H](CC(C)C)NC(=O)[C@H](CCCCN)NC(=O)[C@H](CCC(=O)O)NC(=O)[C@H](CCCCN)NC(=O)[C@@H](NC(=O)[C@H](CCCCN)NC(=O)[C@H](CC(N)=O)NC(=O)[C@H](CCCNC(=N)N)NC(=O)[C@H](Cc1ccccc1)NC(=O)[C@H](CCCCN)NC(=O)[C@H](CCCNC(=N)N)NC(=O)[C@H](CC(C)C)NC(=O)[C@H](CCCNC(=N)N)NC(=O)[C@H](CCCCN)NC(=O)[C@H](CCCNC(=N)N)NC(=O)[C@@H](N)CC(C)C)[C@@H](C)CC)C(=O)NCC(=O)N[C@@H](CCC(N)=O)C(=O)N[C@@H](CCCCN)C(=O)N[C@H](C(=O)N[C@@H](CCC(N)=O)C(=O)NCC(=O)N[C@@H](Cc1ccccc1)C(=O)N[C@H](C(=O)N1CCC[C@H]1C(=O)N[C@@H](CCCCN)C(=O)N[C@@H](CC(C)C)C(=O)O)C(C)C)[C@@H](C)CC is reported as 2.67 µM (inhibition zone method; 14, LB 0.8% agar with 154 mM NaCl; overnight, 37 °C).
